Results from different studies.
Protocols differ between the studies behind these lines. Values joined by “and” are separate records of one study, mostly repeats; a detail may differ.

SMILES	target or system	test	test system	setting	how to read	quantity	value
CCn1cc(-c2cc(Cn3ccnc3)cc3c2CCN([C@H](c2cc(OC)ccn2)C2CC2)C3=O)c(C(F)(F)F)n1	SNU1076	cell growth		120 h		EC50	> 30 µM
O=C(O)CNC(=O)Cc1ccccc1			ventricular cardiomyocytes, C57BL/6 mouse	dose not given, 0.016 s		sarcomere length	1.72 µm
COC(=O)[C@H](Cc1c[nH]c2ccccc12)NCc1cc2ccccc2nc1OC	Pseudomonas aeruginosa			8 µg/mL, added: pentamidine 100 µM	baseline: control	growth	51.7%
CC(C)C(=O)OC[C@@]1(F)O[C@@H](n2cnc(-c3cnc[nH]c3=O)c2)[C@H](OC(=O)C(C)C)[C@@H]1OC(=O)C(C)C	Dengue virus	viral replication	Huh-7, DENV-2	48 h		EC50	> 100 µM
CCN(CC)CCOC(=O)c1ccc(N)cc1	human iPSC-derived cardiomyocytes	MyBP-C/MYH ratio, plate-normalised SD score		concentration not given, primary screen	direction not given	activity score	-3.6
COc1ccc(-c2cncc(N[C@@H](C)c3cccc(NC(=O)c4cncc(C)c4)c3)n2)cc1OC		refers to: rno-miR-194-5p	rat SU5416/hypoxia model, lung	dose not given, unit not given	baseline: SU5416/hypoxia vehicle	delta delta Ct	0.0808
CC(C)=CCCC1(C)C=Cc2c(O)c3c(c(CC=C(C)C)c2O1)OC12C(=CCCC1C(C)(C)O[C@@]2(C/C=C(\C)C(=O)O)C(=O)O)C3=O (stereo partly shown)	human iPSC-derived cardiomyocytes	MyBP-C/MYH ratio, plate-normalised SD score		concentration not given, primary screen	direction not given	activity score	3.2
Cn1cc(-c2ccc(-c3cncc(Cl)c3N3CCC4(CCNC4=O)CC3)cc2)cn1	COLO 205	gene expression, microarray, refers to: LCN2 mRNA		concentration not given, 6 h	baseline: untreated cells	log2 fold change	2.11
CCOC(=O)O[C@]1(C(=O)COC(=O)CC)CC[C@H]2[C@@H]3CCC4=CC(=O)C=C[C@]4(C)[C@H]3[C@@H](O)C[C@@]21C	human iPSC-derived cardiomyocytes	MyBP-C/MYH ratio, plate-normalised SD score		concentration not given, primary screen	direction not given	activity score	3.9
CC(Nc1nc(N2CCCC2)nc2ccccc12)c1ccccc1 (stereo not shown)	importin beta-1	SREBP1 nuclear import, high content imaging	HeLa Kyoto	15.82 µM, 3 h, added: glucose and MG132		cells with nuclear SREBP1	84.3% and 82.9% and 87.6% and 85.2%
O=C(O)c1ccc[n+]([O-])c1	human iPSC-derived cardiomyocytes	MyBP-C/MYH ratio, plate-normalised SD score		concentration not given, primary screen	direction not given	activity score	4.8
CCn1cc(-c2cc(Cn3ccoc3=N)cc3c2CCN([C@@H](C)c2cc(OC)ccn2)C3=O)c(C(F)(F)F)n1	NCI-H446	cell growth, inhibitor		120 h		EC50	0.253 µM
N#Cc1ccc2c(c1)[C@H]1CCCN(C(=O)c3ccc4[nH]cnc4c3)[C@H]1C2			human clinical trial	oral, 240 mg once daily, 28 d		systolic blood pressure change	-2.7 mmHg
COC(=O)[C@H]1[C@H]2C[C@@H]3c4[nH]c5cc(OC)ccc5c4CCN3C[C@H]2C[C@@H](OC(=O)c2cc(OC)c(OC)c(OC)c2)[C@@H]1OC	human iPSC-derived cardiomyocytes	MyBP-C/MYH ratio, plate-normalised SD score		concentration not given, primary screen	direction not given	activity score	3
OC(CCN1CCCCC1)(c1ccccc1)C1CC2C=CC1C2 (stereo not shown)		resting-state EEG	healthy elderly humans	oral, 4 mg, eyes open, LS mean	baseline: baseline	change, Theta power, EEG Pz-O2	0.9%
CN(C(=O)n1cnc(-c2ccc[n+]([O-])c2)c1)C1CCCCC1		refers to: LEA	human, plasma	5 mg single dose		AUC(0-t)	299 ng·h/mL
COc1ncncc1-c1cn([C@@H]2O[C@](F)(CO)[C@@H](O)[C@H]2O)cn1	Dengue virus	viral replication	Huh-7, DENV-4	48 h		EC50	> 100 µM
C[C@H]1[C@H](OC(=O)CCC(=O)O)O[C@@H]2O[C@@]3(C)CC[C@H]4[C@H](C)CC[C@@H]1[C@@]24OO3	human iPSC-derived cardiomyocytes	MyBP-C/MYH ratio, plate-normalised SD score		concentration not given, primary screen	direction not given	activity score	3.9
COc1ncc(-c2cn([C@@H]3O[C@](F)(COC(=O)C(C)C)[C@@H](OC(=O)C(C)C)[C@H]3OC(=O)C(C)C)cn2)c(OC)n1	Dengue virus	viral replication	Huh-7, DENV-4	48 h		EC50	23 µM
COc1cnc2cccc(N3CCc4c(cc(Cn5ccnc5C)cc4-c4cn(C)nc4C(F)(F)F)C3=O)c2c1	COLO 320	cell growth, inhibitor		120 h		EC50	15.9 µM
c1coc(-c2n[nH]cc2-c2ccnc3ccccc23)c1	KIN2 (Candida albicans)	kinase binding, MIB/MS competition	Candida albicans lysate	10 µM	baseline: DMSO	log2 fold change	-0.07
CC(C)C(=O)OC[C@@]1(F)O[C@@H](n2cnc(-c3cnc(N)[nH]c3=O)c2)[C@H](OC(=O)C(C)C)[C@@H]1OC(=O)C(C)C	Dengue virus	viral replication	Huh-7, DENV-4	48 h		EC50	> 100 µM
Oc1ccccc1-c1n[nH]cc1-c1ccnc2ccccc12	SHA3 (Candida albicans)	kinase binding, MIB/MS competition	Candida albicans lysate	10 µM	baseline: DMSO	log2 fold change	0.24
CCS(=O)(=O)c1nc(C2CC2)cc(C(F)(F)F)n1	importin beta-1	SREBP1 nuclear import, high content imaging	HeLa Kyoto	1.58 µM, 3 h, added: glucose and MG132		cells with nuclear SREBP1	90.5% and 86.3% and 87.4% and 86.8%
C=CCCCCCCCCCCCC(O)CC(O)COC(C)=O (stereo not shown)	human iPSC-derived cardiomyocytes	MyBP-C/MYH ratio, plate-normalised SD score		concentration not given, primary screen	direction not given	activity score	6.6
C[C@H]1C[C@H]2CSC(N)=N[C@@]2(c2nc(NC(=O)c3ccc(OC(F)F)cn3)cs2)CO1		refers to: Aβ1-40	healthy adults, plasma	125 mg once daily, day 4	baseline: placebo	percent change from baseline	-87.4%
CN(C)CCC=C1c2ccccc2CCc2ccccc21	human iPSC-derived cardiomyocytes	MyBP-C/MYH ratio, plate-normalised SD score		concentration not given, primary screen	direction not given	activity score	3.3
O=C(/C=C/C=C/C=C/C1CCCCC1)NC1=C[C@@](O)(/C=C/C=C/C=C/C(=O)NC2=C(O)CCC2=O)[C@@H]2O[C@@H]2C1=O	rmugs	cell growth, inhibitor, CellTiter-Glo luminescence		78 h	baseline: day 0 cell count	GI50	28.8 µM

For quick reference, copied from above:
SMILES	target or system	test	test system	setting	how to read	quantity	value
Oc1ccccc1-c1n[nH]cc1-c1ccnc2ccccc12	SHA3 (Candida albicans)	kinase binding, MIB/MS competition	Candida albicans lysate	10 µM	baseline: DMSO	log2 fold change	0.24
COc1ccc(-c2cncc(N[C@@H](C)c3cccc(NC(=O)c4cncc(C)c4)c3)n2)cc1OC		refers to: rno-miR-194-5p	rat SU5416/hypoxia model, lung	dose not given, unit not given	baseline: SU5416/hypoxia vehicle	delta delta Ct	0.0808
